Results from different studies.
Numbered parts are unrelated; each lists some results of a single study.

Sample 1
Target: Interferon regulatory factor 7, full length, phosphomimetic (IRF7, Homo sapiens, UniProt Q92985, residues 1-503, S101K/S471D/S472D/S475D/S476D/S477D/S483D/S484D/S487D)
Sequence of UniProt Q92985 (whole entry, unmodified, looked up): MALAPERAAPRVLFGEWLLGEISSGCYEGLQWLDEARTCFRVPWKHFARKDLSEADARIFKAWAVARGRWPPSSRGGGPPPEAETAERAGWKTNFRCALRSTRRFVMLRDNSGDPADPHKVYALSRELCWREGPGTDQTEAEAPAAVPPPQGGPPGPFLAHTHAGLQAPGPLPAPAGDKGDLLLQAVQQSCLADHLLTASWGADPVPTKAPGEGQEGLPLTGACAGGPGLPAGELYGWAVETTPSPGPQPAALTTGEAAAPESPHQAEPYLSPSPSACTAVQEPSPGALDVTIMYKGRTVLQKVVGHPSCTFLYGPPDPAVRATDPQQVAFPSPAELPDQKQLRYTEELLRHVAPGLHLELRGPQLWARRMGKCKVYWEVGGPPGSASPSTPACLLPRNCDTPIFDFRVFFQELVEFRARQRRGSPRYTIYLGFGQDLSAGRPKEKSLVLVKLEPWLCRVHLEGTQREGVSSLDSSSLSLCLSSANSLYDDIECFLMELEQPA
Method: protein-binding microarray
Molecule type: double-stranded DNA, one strand shown
Medium: in vitro
Tested at: 250 nM
Setting: 60-bp whole probe
Added: salmon DNA 0.4 mg/ml
Baseline: random background probes
Reading: higher = stronger binding
Measurement: log fluorescence
GCCTAGCACGACGGGTTCGGGACTGGGGACGTGCTAGTCTTGATTCGCTTGACGCTGCTG: -0.0359 z-score
GCCTAGCACTTAGGTCTTGGACTGGGTTAGTGCTAGGTCTTGATTCGCTTGACGCTGCTG: -0.223 z-score
GCCTAGCACTGGGATTTTTAGTTAGAAAAGTGCTAGGTCTTGATTCGCTTGACGCTGCTG: -0.441 z-score
GCCTAGCACTCACCTCTCACCTCGGCACTGTGCTAGGTCTTGATTCGCTTGACGCTGCTG: 0.11 z-score

Sample 2
Target: Histone acetyltransferase KAT6A, winged helix 1, GST fusion (KAT6A, Homo sapiens, UniProt Q92794, residues 1-85)
Method: protein binding microarray
Molecule type: double-stranded DNA, one strand shown
Medium: in vitro
Tested at: not given
Setting: 8-mer, flanks averaged, mean of 2 arrays, mostly near background
Baseline: not given
Reading: higher = stronger binding
Measurement: E-score
Construct (chain): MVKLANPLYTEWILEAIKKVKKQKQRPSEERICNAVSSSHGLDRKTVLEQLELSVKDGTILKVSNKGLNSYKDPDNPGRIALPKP
ACCCTTCG: -0.0582
GCAATGAA: -0.0521
ATACACAC: -0.118
CTTAGCAC: 0.0137

Sample 3
Target: Sal-like protein 4, full length isoform A (SALL4, Homo sapiens, UniProt Q9UJQ4, residues 1-1053)
Sequence of UniProt Q9UJQ4 (whole entry, looked up): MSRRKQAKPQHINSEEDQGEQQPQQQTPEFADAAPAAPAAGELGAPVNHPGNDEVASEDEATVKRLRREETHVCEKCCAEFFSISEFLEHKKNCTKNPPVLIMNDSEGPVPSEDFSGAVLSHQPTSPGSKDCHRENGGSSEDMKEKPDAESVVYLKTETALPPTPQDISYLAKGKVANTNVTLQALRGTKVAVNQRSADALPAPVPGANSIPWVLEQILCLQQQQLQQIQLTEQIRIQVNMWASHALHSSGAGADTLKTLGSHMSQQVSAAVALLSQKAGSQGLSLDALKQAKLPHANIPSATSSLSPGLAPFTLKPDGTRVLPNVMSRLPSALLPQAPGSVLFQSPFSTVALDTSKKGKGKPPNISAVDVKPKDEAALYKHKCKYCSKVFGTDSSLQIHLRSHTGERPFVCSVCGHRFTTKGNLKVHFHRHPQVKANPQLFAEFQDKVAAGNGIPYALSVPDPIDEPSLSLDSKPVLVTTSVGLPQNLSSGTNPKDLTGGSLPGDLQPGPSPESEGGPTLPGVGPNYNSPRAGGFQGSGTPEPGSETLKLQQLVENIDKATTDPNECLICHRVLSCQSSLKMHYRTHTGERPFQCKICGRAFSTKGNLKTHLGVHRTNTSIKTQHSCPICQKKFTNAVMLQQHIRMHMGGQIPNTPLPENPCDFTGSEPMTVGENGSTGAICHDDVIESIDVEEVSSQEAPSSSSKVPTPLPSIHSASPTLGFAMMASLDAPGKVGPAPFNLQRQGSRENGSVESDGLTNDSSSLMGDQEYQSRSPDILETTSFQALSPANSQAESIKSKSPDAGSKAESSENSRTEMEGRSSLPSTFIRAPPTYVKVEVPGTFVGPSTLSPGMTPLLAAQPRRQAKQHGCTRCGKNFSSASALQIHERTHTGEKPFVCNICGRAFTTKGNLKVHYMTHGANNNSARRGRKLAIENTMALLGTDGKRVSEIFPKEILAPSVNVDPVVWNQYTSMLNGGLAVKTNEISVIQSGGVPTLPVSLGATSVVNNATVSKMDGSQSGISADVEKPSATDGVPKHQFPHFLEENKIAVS
Method: universal PBM
Molecule type: double-stranded DNA, one strand shown
Medium: in vitro
Tested at: 600 nM
Setting: 8-mer, flanks averaged, mean of replicates
Reading: higher = stronger binding
Measurement: E-score
ATTCGTCG: -0.0586
AAAACCTA: 0.185
TGCTCTAA: 0.0112
CAGCGTTA: -0.0838
ACGCACAA: 0.101
ATATTGGG: 0.221

Other studies, line by line
PhoQ, residues 284 288 289 292 302 303 WSHMKI  fold induction (PhoP, residues 12 14 15 18 19 TPWLV (Escherichia coli, UniProt P23836); Sort-seq, measured: YFP reporter; E. coli; PhoQ-PhoP variant library, added: 10 µM Mg2+; baseline: high Mg2+ state, higher = stronger signaling): 4.59

Some of these lines once more (sample 2):
ACCCTTCG: -0.0582
GCAATGAA: -0.0521
